Assay results gathered from unrelated publications.
Every numbered part comes from another study and shows a few of its results, in no order. Positions count from the first letter of the parent shown.

Series 1
Target: Histone acetyltransferase KAT6A, winged helix 1, GST fusion (KAT6A, Homo sapiens, UniProt Q92794, residues 1-85)
Technique: protein binding microarray
Form: double-stranded DNA, one strand shown
Matrix: in vitro
Concentration: not given
Notes: 8-mer, flanks averaged, mean of 2 arrays, mostly near background
Relative to: not given
Reading: higher = stronger binding
Residues (chain): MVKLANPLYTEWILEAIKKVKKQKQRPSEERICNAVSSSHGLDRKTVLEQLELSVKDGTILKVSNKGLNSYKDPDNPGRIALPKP
Strand | E-score
ACCCACAC | 0.0207
ACAGAGAA | 0.00345
AAGCTCCT | -0.119
GGCTCGGA | 0.201
ATAGTCCA | -0.258
ATGAACTC | -0.101
GACGTTGC | 0.0582
CAATTAGG | -0.168

Series 2
Target: DDIT3, bZIP domain (human)
Technique: DHFR protein complementation
Matrix: yeast
Notes: single substitutions, most at no-binding floor
Relative to: wild-type JUN-FOS pair
Reading: higher = stronger binding
Starting sequence: JUN, bZIP domain (human); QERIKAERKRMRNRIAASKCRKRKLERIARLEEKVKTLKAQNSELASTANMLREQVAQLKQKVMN; partner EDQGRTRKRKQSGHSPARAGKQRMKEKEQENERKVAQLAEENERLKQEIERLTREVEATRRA
Change | binding fitness
L45P | -1.19 natural log
K36L | 0.0103 natural log
L31N | -0.768 natural log
A40D | -0.0174 natural log
Q55G | -1.11 natural log
L38M | -0.126 natural log
Q41S | -1.01 natural log
E44P | -1.05 natural log

Series 3
Target: Interferon regulatory factor 5, full length, phosphomimetic (IRF5, Homo sapiens, UniProt Q13568-2, residues 1-514, S451D/S453D/S456D/S462D)
Technique: protein-binding microarray
Form: double-stranded DNA, one strand shown
Matrix: in vitro
Concentration: 940 nM top
Notes: 60-bp whole probe
Added: salmon DNA 0.4 mg/ml
Relative to: random background probes
Reading: higher = stronger binding
All sequences stand within: GCCTAGCAC … GTCTTGATTCGCTTGACGCTGCTG
Strand | fitted relative affinity
TTAGGACTGCCTTTCCTTTAGTGCTAG | 0.0322 z-score
TCACGTATATTCCCTAGAACTGTGCTA | 0.814 z-score
TTAGATATCATTTTCGATTAGTGCTAG | 1.62 z-score
TTAGGTCTCCTACTGCTTGAGTGCTAG | -0.231 z-score
GACGTTTTCGGGTATCGAGACGTGCTA | 2.2 z-score
GACGGTATCGGTTTCGGGGCGTGCTAG | 10 z-score
GACGGTATCGGGTTTGGGGACGTGCTA | 4.34 z-score
TTAGGCCTGCTTCTCCTTTAGTGCTAG | -0.0685 z-score

Mixed results
SMILES | cell line | test | conditions | endpoint | value
O=C(NCCN1CCOCC1)c1ccc2c(c1)C(=O)c1ccc(Nc3ccc(F)c(NC(=O)c4ccccc4)c3)cc1CC2 | HEK293T | high-content imaging | concentration not given, 24 h, recommended concentration | tubulin stain change | 91%

Excerpt of the above (series 1):
Strand | E-score
ACCCACAC | 0.0207
AAGCTCCT | -0.119
ATAGTCCA | -0.258
ACAGAGAA | 0.00345
